{"data": "Measured values from different studies", "action": "agonist", "CNR1": "Cannabinoid receptor 1 (CNR1, Homo sapiens, UniProt P21554)", "CNR1 I267L/L193I/L359V": "Cannabinoid receptor 1 (CNR1, Homo sapiens, UniProt P21554, I267L/L193I/L359V)", "note": "Compare with care: the assays were run in different laboratories. ± gives the spread as reported.", "UniProt P21554, sequence (whole entry, unmodified, looked up)": "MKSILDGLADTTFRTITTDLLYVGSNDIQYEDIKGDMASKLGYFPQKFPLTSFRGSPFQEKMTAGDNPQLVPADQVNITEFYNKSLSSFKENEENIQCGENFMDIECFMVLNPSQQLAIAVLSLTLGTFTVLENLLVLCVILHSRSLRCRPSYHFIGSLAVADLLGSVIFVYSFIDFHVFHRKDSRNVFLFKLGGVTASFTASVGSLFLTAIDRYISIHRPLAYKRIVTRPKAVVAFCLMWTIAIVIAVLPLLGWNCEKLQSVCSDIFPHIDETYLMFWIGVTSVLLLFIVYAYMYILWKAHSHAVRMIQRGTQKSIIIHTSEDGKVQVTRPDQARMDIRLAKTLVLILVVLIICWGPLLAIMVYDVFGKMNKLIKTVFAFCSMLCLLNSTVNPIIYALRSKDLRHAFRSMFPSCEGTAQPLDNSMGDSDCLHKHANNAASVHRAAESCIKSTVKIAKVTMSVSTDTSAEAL"}
{"SMILES": "Cn1cc(C(C[N+](=O)[O-])c2c(-c3ccccc3)[nH]c3ccccc23)cn1 (stereo not drawn)", "target": "CNR1", "assay": "β-arrestin recruitment, luciferase", "EC50 [nM]": 2830}
{"SMILES": "CCCCCn1cc(C(=O)c2ccc3c(c2)CC(C)(C)C3)c2ccccc21", "target": "CNR1 I267L/L193I/L359V", "assay": "cAMP inhibition, CAMYEL BRET biosensor", "conditions": "added: forskolin 10 µM", "EC50 [nM]": 100}
{"SMILES": "Cn1c(C(C)(C)C)c/c(=N\\C(=O)c2cc(C(F)(F)F)ccc2OCC(C)(C)O)n1CC1CCC1", "target": "CNR1", "assay": "cAMP", "EC50 [nM]": "> 10000"}
{"SMILES": "Cc1ccc2c(C(C[N+](=O)[O-])c3cccs3)c(-c3ccccc3)[nH]c2c1 (stereo not drawn)", "target": "CNR1 (Homo sapiens, UniProt P21554, I245F)", "assay": "G protein activation, BRET", "EC50 [nM]": 120}
{"SMILES": "CCCCCn1ccc(C(=O)NC(C)(C)c2ccc(NC(C)=O)cc2)n1", "target": "CNR1", "assay": "calcium signal", "EC50 [nM]": 112}
{"SMILES": "CCCCCn1cc(C(=O)c2ccc3ccccc3c2)c2ccccc21", "target": "CNR1", "assay": "cAMP", "EC50 [nM]": 43.7}
{"SMILES": "CCCCCn1ccc(C(=O)NC(C)(C)c2ccc(C(N)=O)cc2)n1", "target": "CNR1", "assay": "calcium signal", "EC50 [nM]": "> 10000"}
{"SMILES": "CCCCCn1cc(C(=O)c2cccc3c2CC(C)(C)C3)c2ccccc21", "target": "CNR1 (Homo sapiens, UniProt P21554, H178A)", "assay": "G protein activation, BRET", "EC50 [nM]": 1380}
{"SMILES": "CC(C)[C@H](NC(=O)c1ccn(Cc2ccc(F)cc2)n1)C(N)=O", "target": "CNR1", "assay": "calcium signal", "EC50 [nM]": 4350}
{"SMILES": "CCCCCn1cc(C(=O)c2cccc3ccccc23)c2ccccc21", "target": "CNR1 I267L/L193I/L359V", "assay": "cAMP inhibition, CAMYEL BRET biosensor", "conditions": "added: forskolin 10 µM", "EC50 [nM]": 0.479}
{"SMILES": "O=[N+]([O-])CC(c1ccco1)c1c(-c2ccccc2)[nH]c2ccccc12 (stereo not drawn)", "target": "Cannabinoid receptor 1, with GoB (CNR1, Homo sapiens, UniProt P21554)", "assay": "GoB dissociation, BRET", "system": "HEK293", "EC50 [nM]": "2260 ± 40"}
{"SMILES": "CCCCCn1ccc(C(=O)NC(C)(C)c2ccc(C#N)cc2)n1", "target": "CNR1", "assay": "calcium signal", "EC50 [nM]": 216}
{"note": "A few entries again:"}
{"SMILES": "CC(C)[C@H](NC(=O)c1ccn(Cc2ccc(F)cc2)n1)C(N)=O", "target": "CNR1", "assay": "calcium signal", "EC50 [nM]": 4350}
{"SMILES": "CCCCCn1cc(C(=O)c2cccc3ccccc23)c2ccccc21", "target": "CNR1 I267L/L193I/L359V", "assay": "cAMP inhibition, CAMYEL BRET biosensor", "conditions": "added: forskolin 10 µM", "EC50 [nM]": 0.479}
